Assay results gathered from unrelated publications.
Numbered parts are unrelated; each lists some results of a single study. Changes are numbered by the printed parent chain.

Sample 1
Target: ABI1, truncated, D143A, DHFR fusion (Arabidopsis thaliana)
Technique: DHFR PCA, deep sequencing
Medium: yeast
Notes: methotrexate growth selection, single substitutions
Together with: (+)-ABA 0.39 µM
Relative to: wild-type fitted maximum
Reading: higher = stronger binding
Quantity: relative binding score
Starting sequence: PYL1, truncated, DHFR fusion (Arabidopsis thaliana); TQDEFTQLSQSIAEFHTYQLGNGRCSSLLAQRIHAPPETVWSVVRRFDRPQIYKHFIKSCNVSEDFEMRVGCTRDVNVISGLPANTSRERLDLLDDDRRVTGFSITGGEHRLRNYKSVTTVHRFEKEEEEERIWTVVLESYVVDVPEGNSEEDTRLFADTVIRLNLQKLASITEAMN; partner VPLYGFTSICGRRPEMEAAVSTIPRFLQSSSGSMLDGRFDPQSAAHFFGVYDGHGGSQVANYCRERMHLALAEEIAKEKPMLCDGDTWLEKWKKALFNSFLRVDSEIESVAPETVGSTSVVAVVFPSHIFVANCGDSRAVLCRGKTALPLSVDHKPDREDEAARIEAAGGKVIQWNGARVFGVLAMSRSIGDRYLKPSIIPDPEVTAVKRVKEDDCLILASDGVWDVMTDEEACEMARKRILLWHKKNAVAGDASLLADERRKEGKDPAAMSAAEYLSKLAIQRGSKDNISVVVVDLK
V145G: -10.5%
S171D: 56.1%
A84K: 2.18%
V70R: -0.51%
T86D: 14.7%
T173H: -6.3%
Q167A: 52.6%
K168F: -5.75%
A175Y: -9.97%
I57W: -7.94%
S9G: 38.1%
V78L: 72.8%
G148Q: -3.94%
T6V: 51%

Sample 2
Target: RNA binding protein fox-1 homolog 2, RRM domain, GST-SBP tag (RBFOX2, Homo sapiens, UniProt O43251-10, residues 100-194)
Technique: RNA Bind-n-Seq
Molecule type: RNA
Medium: in vitro
Tested at: 365 nM
Notes: natural RNA segment, single round, ends assumed
Relative to: no-protein control
Reading: higher = stronger binding
Quantity: RBNS enrichment (R)
Residues (chain): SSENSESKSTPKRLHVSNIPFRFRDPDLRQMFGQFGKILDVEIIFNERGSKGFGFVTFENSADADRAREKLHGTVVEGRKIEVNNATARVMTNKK
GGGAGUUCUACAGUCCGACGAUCGUGUCCCCAAGAGAGAGGCUGAAGGACUUUCUCGACAUGGUCCUGGCACUUCCCAGCCUGCUUUUGGGAAGGCUCCUAUGGCCCCUGUGGGCACAAUGAAAAUGUUUACAUGGAAUUCUCGGGUGCCAA: 7.7
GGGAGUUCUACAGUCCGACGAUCAGCCACAGCGCUAGAUAAGCCUCACAGUUGUCCAGGGGAAGGGUUUAGGAAUUGGGUCUUUUGUCCAAGUGACUUCGGUCUUAAGAAGAAAUAGUGUUGGGAGGGAACCUUGGAAUUCUCGGGUGCCAA: 0.891
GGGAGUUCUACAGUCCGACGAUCGAAGCCUCCAGAGGGACAGCAGGGACGAGCCACACUCAACCCCCCCCCUGCACAUCAGGUCUGAGAGCUAGGAGCUGGGACAGGAGUCGUCUGCAGGAGCUCAGUUGGCUUGGAAUUCUCGGGUGCCAA: 0.492
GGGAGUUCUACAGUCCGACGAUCCACUCUAGUGUGAAGUCCUCUUCUAGGGUAUCCUGGUGACUGUGGCUAGCCAAGGGGCCACUUCUUGGUAGGAAGGUAUGACAGAGUACUUUCCCAAGUUCCUCACGAGGUGGAAUUCUCGGGUGCCAA: 0.277
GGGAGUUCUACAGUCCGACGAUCGAACAGGCAUUUUACACUAUGAAGACAUUCUUUUGAGAUUUUUAUUUCAGUUGCUAUAUCAUAAGCAUUUUUAAAGUUUCUUUUCUAAUUUUACAUUGUAUUAGAUUUUCUGGAAUUCUCGGGUGCCAA: 1.57
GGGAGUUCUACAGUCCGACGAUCCCAAGGCUCUACUGGGUCCCUGGACCUAACCCUGCUUUCAUCCUGGUGGCCUUAACUACAGUGGAGGUGGAACUUCCCAGGAGGGGAAGGGACAGACCAGCCCCAGCCGCUGGAAUUCUCGGGUGCCAA: 0.486
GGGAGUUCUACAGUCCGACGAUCAGAGGCAAAAAAAGACACACUAUUCUCUGCCUCUAAAACACAAUUAAAUAAAAGAAUUUAAAUAAAAUUAAGGCUUCUAUAUGCAUUUUUAAAUUUUGUAUGAAUCUGUUUGGAAUUCUCGGGUGCCAA: 1.39
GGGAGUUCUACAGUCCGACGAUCAGGCCGAGCCCACCCUUAGCCACCAGGCUCAGUGGCUGUACAGAGCAGCUGGCUGACAUCUGUCCCUGCUCCACCCCUGCCCCUACCCGCACCCCUCUGGUUCUCAGCAAUGGAAUUCUCGGGUGCCAA: 0.278

Sample 3
Target: RING finger protein unkempt homolog, zinc fingers 1-6, GST-SBP tag (UNK, Homo sapiens, UniProt Q9C0B0, residues 30-357)
Technique: RNA Bind-n-Seq
Molecule type: RNA
Medium: in vitro
Tested at: not given
Notes: RNA with constant flanks, human and mouse sites, ends assumed
Relative to: input RNA pool
Reading: higher = stronger binding
Quantity: bound/input enrichment
Residues (chain): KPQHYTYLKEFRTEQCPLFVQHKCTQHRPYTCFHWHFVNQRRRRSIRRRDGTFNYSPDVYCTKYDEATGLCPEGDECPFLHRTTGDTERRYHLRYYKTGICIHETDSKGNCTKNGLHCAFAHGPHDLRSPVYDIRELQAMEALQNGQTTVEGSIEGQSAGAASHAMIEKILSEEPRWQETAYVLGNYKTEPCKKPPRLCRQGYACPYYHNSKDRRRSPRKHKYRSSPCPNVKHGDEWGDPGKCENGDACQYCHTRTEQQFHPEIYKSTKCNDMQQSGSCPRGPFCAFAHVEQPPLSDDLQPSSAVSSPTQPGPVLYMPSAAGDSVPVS
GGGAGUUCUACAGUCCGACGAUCGCCUCUGCCACGCUGAGUGCGUCGCGGACUGGGCUUUCCGAUAUGCUCGCGUUAGAGAGCGAUUUCUUCAAUUCUCCUCCGAAAAAAACUGUUCGGUUUGGCGGAACUGUGACAGAAGUCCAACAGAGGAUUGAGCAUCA: 0.075 ratio
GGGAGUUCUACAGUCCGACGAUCACCCAGCCAAACCCACCUCCACCAUGGGGGCCAUGACUCAGCUGUUGGCAGGUGUCUUUCUUGCUUUCCUUGCCCUCGCUACCGAAGGUGGGGUCCUCAAGAAAGUCAUCCGGCACAAGCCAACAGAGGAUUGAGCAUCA: 0.103 ratio
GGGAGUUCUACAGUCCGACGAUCUCCCCAAGUGGAGUUUCACUCAUACUUGAAAGGCCCUGCCCAGGAAGGGUUUGUUUCCACAUUGAAUGGCGACAGCCACAUUUCAGAGCAUCCUGCAGAAAAUCCUUUGAGCCUUGCAGACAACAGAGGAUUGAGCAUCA: 0.0812 ratio
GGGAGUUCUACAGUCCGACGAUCAACCUUCCUUUUUUUAAAUUUUCUCCAGUCCCUGGGAGCAAGUUGCAGUCUUUUUUUUUUUUUUUUUUUUUUUUCCCUCUUGUGCUCAGUCGCCCUGUUCUUGAGGUCUCUUUUCUCUACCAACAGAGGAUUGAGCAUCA: 1.32 ratio
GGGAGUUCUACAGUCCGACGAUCGGAGACUCCACGGCAAGAAUCUGGAACCUCAGUGAGAACAGCACGAGUGGCCCUACGCAGCUCGUGCUUAGACACUGCAUACGGGAAGGAGGGCAGGACGUGCCCAGUAACAAGGAUGUCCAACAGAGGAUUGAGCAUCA: 0.087 ratio
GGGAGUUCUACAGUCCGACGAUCAAUAAAGCGGUUGUGCUUCGGGGCCAUGAAUCUGAAGUUUUCAUCUGUGCCUGGAACCCUGUUAGUGAUCUCCUGGCAUCAGGGUCUGGAGACUCCACGGCAAGAAUCUGGAACCUCAGUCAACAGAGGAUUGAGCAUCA: 0.142 ratio
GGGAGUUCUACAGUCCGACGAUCAAUUUUCAUUUCGCUUGUGUUCAUGGUGUGUGCUCCCAACCCCCUUUCCUCCCCUGACCCCUUAGUCCUUCAUUCCCAGUUUUCCGGAAUGAUACUUUAGGAGGAAUAGAUUGUAAAGAGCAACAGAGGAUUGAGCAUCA: 1.24 ratio
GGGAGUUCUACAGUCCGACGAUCGUCAUGCCGGGGAUAGUGGAGCUGCCCACUCUAGAGGAGCUGAAAGUAGAUGAGGUGAAAAUUAGUUCUGCUGUGCUUAAAGCUGCGGCCCAUCACUAUGGAGCUCAAUGUGAUAAGCCCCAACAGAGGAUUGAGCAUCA: 5.59 ratio

Sample 4
Target: Histone acetyltransferase KAT6A, both winged helices, GST fusion (KAT6A, Homo sapiens, UniProt Q92794, residues 1-181)
Technique: protein binding microarray
Molecule type: double-stranded DNA, one strand shown
Medium: in vitro
Tested at: not given
Notes: 8-mer, flanks averaged, mean of 2 arrays, mostly near background
Relative to: not given
Reading: higher = stronger binding
Quantity: E-score
Construct (chain): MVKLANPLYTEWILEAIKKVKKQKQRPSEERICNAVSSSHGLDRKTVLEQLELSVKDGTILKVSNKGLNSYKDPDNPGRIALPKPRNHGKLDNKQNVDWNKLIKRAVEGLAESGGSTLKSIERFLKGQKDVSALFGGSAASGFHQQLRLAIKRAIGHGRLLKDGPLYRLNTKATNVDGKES
CATCTGGC: -0.123
AGTTCCTA: -0.135
ATTAGTTG: -0.065
TGTAGCAA: -0.116
AGTTACGG: 0.141
AATCCTAT: -0.124
TGTCTAAA: 0.028
CACGATGG: -0.0685
ATTGTTCA: -0.0164
CACGCAGA: 0.0598
AGGGTCCC: -0.105
ACCAGGCT: -0.138
GTTAGGGA: -0.0415
CAGATCAC: -0.0374
AAACACAG: -0.102
GATTAAAA: -0.0584
CGTCCTGC: -0.0168
CGATTCTC: 0.0282
CTCCCTGA: -0.21
CAAAGTCA: -0.118
CACCGGTG: 0.0725
CGCGGGAA: 0.318
AGCCTTTG: -0.215

A few entries again (sample 4):
GATTAAAA: -0.0584
CGTCCTGC: -0.0168
CGATTCTC: 0.0282
CTCCCTGA: -0.21
CAAAGTCA: -0.118
CACCGGTG: 0.0725
CGCGGGAA: 0.318
